Results collected from several papers.
Each numbered part is a random draw from the data of one study; scales do not carry over between parts.

Study 1 — technique: RNA Bind-n-Seq; form: RNA; matrix: in vitro; concentration: not given; notes: RNA with constant flanks, ends assumed; relative to: input RNA pool; direction: higher = stronger binding
Target: RING finger protein unkempt homolog, zinc fingers 1-6, GST-SBP tag (UNK, Homo sapiens, UniProt Q9C0B0, residues 30-357)
Chain of UniProt Q9C0B0 (30-357, looked up): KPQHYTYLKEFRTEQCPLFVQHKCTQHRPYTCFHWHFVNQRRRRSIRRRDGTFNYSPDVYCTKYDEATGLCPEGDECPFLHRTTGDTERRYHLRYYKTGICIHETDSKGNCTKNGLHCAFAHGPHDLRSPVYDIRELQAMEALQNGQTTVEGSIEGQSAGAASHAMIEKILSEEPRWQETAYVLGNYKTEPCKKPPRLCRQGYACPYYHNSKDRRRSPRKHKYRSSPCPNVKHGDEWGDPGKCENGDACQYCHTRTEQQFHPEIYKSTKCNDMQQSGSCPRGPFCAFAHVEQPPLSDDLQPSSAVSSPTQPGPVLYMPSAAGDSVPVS
Shared flanks, not repeated: GGGAGUUCUACAGUCCGACGAUC … CAACAGAGGAUUGAGCAUCA
Strand	bound/input enrichment
AGAUUAGGCCAUGAUCCCUACAGACUAACUCCUGAUCCCUAUAGGAUGUCACCUAGACCCUACAGGACCGCACCCAGGUCCUAUAGAAUAGCACCCAGGCCAUAUAGGUUAGCACCUAGA	3.02 ratio
GAAAAGAGUGGAAAACAAGGCUCUCCAGACCAAGUAAGUCCAGUUUCUGAAAUGACUUCUACCCGUCUUUACCAAGACAAACAGGAAGGGAAAAGCACAGACUUUGCACCAAUAAAAGAA	0.274 ratio
GAGCAACGGAGAGCCCCACUUUCUACCAGAUGCAAUGUUUGGGCAACCAGGAGCCCCCGGCCGCACUCCAUUUCUUGGUCAGCAUGGUUUUAAUUUUUUUCCCAGUGGGAUUGACUUCUC	0.252 ratio
GCAUCUCCCUGCUCCCCUCAACCCCCUCCCACCCCAUCCACGCCCCCUACCUUUCCCAAUUUCCGUUUCAUGCAAUAAAAAGGCCAAACUUUUUAUUCCAUAAAACAAGAAGGACAAAAC	1.32 ratio
AUUUUAGCUCUGAUCUCACUCUUCAGUAUUCCUGUUAUAUAUGAACGGCAUCAGGCGCAGACCGAUCAUUAUCUAGGACUUGCAAACAAGAGCGUUAAGGAUGCCAUGGCCAAAAUCCAA	0.318 ratio
ACCUGGGGCAUUCAGCCAGCGCCCAUGCCUGUGCCUGUGUGGGUGAUCAUUUUAGCAGUUCCCGCAGGAUUGUUGCUACUGGCUGUUUUGGUAUUUGUAAUGUACAGGAUGGGCUUUUUU	0.406 ratio
CCAAAGCUGGCAGCACUUCUCCGUGUGUUCAGUACUGUGGUGAGGAGCAUUGGGGAACGCUUCCGCCCAAUUCGGGGUCCACCAAUUACAGAGGCAUACGUAACAGAUGUUCUAUACAGA	0.0957 ratio
GCAGAUGCUGAGGUUGCCAGGAGGAAAUCAGUCCCAUCAGAGACUGUGGUUGAGGACCGUCGUACUGGCUUGCCCCCGGUAACUGAUGAAAACCAUGUCAUUGUAAAAACGGACAGUCAG	0.0855 ratio

Study 2 — technique: RNA Bind-n-Seq; form: RNA; matrix: in vitro; concentration: 365 nM; relative to: no-protein control; direction: higher = stronger binding
Target: RNA binding protein fox-1 homolog 2, RRM domain, GST-SBP tag (RBFOX2, Homo sapiens, UniProt O43251-10, residues 100-194)
Notes: natural RNA segment, single round, ends assumed
Shared flanks, not repeated: GGGAGUUCUACAGUCCGACGAUC … UGGAAUUCUCGGGUGCCAA
Residues (chain): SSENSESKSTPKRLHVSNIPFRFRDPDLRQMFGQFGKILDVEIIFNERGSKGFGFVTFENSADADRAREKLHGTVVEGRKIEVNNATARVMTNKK
Strand	RBNS enrichment (R)
CUCCUCUGUAGUCAUCUUAUUUGGAUCAGGGAGAAGCAUGAACAAAAAUAUGUUCCAGAACCAUGUGCAAGCUCUGUAAGUCACUGCCCGUGUCUGGAUGAAGGGCUUUC	3.19
UAUGUUUGGUAAUAUCAUCUUGAAAAGUCCCUGUAAUAGAUCAAGGAGACUGCAUUCCCUGCCCUGAAGGAAUGUAUUUCUAAGGCAAAUAGGCAACUUGGUACUAUCUU	0.574
AUGUGUAGACAUUAGUGAAAAUUAACAAUGCACGUUAUUUGCAAAUGUCAGCAAUUAUCUGUACAUGGUAAGAACGAAAAAUACCUUCAUUGAAAUAAAGCUACAGCACA	2.17
UGAGGAACCUGUAUUCCUCUUCUUCGUGAUAAUAUAAUCUCUAUUUUUUUAGGAAAACAAAAAUGAAAAACUACUCCAUUUGAGGAUUGUAAUUCCCACCCCUCUUGCUU	0.393
AUGACCCUUCCUUUUUACCUCAUUUAUUUGGUACUUUCCCCACACAGUCCUUUAUCCACCUGGAUUUUUAGGGAAAAAAAUGAAAAAGAAUAAGUCACAUUGGUUCCAUG	0.289
UGCCUCUGUUACUGUUUGUAUUGAAUAAAAACAUCUUCAUGUGGGCUGGGGUAGAAACUGGUGUCUGCUCUGGUGUGAUCUGAAAAGGCGUCUUCACUGCUUUAUCUCAU	0.728
GCACUCAAAACCAACAAAGAGAAUGAGCAAUCAUCUUAAAGAUGGAACCUCUUAAAGGACAACUUUGAUUUCCUUCUUCGUGUGAAGAUGCUGGAUAGUACCCAAAUCAC	0.363
UAAUGUGUCUGGACAGAUUGUGGGAGUAAGUGAUUCUUCUAAGAAUUAGAUACUUGUCACUGCCUAUACCUGCAGCUGAACUGAAUGGUACUUCGUAUGUUAAUAGUUGU	0.782

Study 3 — technique: RNAcompete; form: RNA; matrix: in vitro; concentration: 20 nM; notes: 7-mer, probes averaged, single round; relative to: mean of 7-mers; direction: higher = stronger binding
Target: PABPC1L2, full length, GST fusion (mouse, UniProt A0ABA7IW68)
Target sequence (chain): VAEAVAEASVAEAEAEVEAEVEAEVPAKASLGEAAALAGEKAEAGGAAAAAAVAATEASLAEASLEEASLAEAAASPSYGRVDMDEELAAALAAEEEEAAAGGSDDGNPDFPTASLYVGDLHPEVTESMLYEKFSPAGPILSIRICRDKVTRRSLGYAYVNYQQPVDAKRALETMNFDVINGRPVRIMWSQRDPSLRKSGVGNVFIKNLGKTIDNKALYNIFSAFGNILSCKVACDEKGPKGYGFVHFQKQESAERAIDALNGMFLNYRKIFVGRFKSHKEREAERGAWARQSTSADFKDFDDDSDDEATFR
Strand	7-mer Z-score
CGGAACG	-0.157
AUAAGCA	0.0497
AACAAUC	0.55
UGCUGUC	-0.269
CAGAGCG	-0.0754
ACAUCCA	-0.0971
CUUUAAU	0.144
GACGAAC	-0.0101
CGGCAAG	0.189
AUAUCAU	-0.142
AUCCAGC	-0.175
GGAGAUC	0.0261
CCUUCAU	-0.287
CACACAG	-0.106
CAUAUAA	0.374
GUACGUU	-0.331
AGUCUGG	-0.113
CGCAUCG	-0.171
CCAUUGA	-0.162
AAAUGUC	0.767
AAGCCUG	-0.0554
AAGUGGU	0.352

Study 4 — technique: RNA Bind-n-Seq; form: RNA; matrix: in vitro; concentration: 200 nM; notes: whole 134-nt RNA, ends assumed; added: 150 mM LiCl; relative to: input library; direction: higher = stronger binding; each molecule: 7-deaza-guanosine replaces G
Target: Fragile X messenger ribonucleoprotein 1, C-terminal low-complexity region (Fmr1, Mus musculus, UniProt P35922)
Shared flanks, not repeated: GGGAGUUCUACAGUCCGACGAUC … UGGAAUUCUCGGGUGUCAAGG
Strand	log2 enrichment
CAAGUCCUGUGCUACACAUCGUAUGUACCGAAUCGGGGAAAGGGGAGGGGUGGGGAAAGUAUUAUGUUACGCCGUUCGGAUCUGCACUUC	0.322
UUCCCAAGAUGGCGGCGGACGUGUCCGUUACUCACCGGCCCCCGCUGAGCCCUAAGUCUGGGGCCGAAGUCGAAGCCGGCGAUGCCGCGG	-3.84
CACAGACAACAAGCACCCACACAGACACAGAGGGAAGGGGUUGGGAUGGGGACAGGGUGCACAGCAGGGCGGGGUAGGACCCCAGCCCCU	0.137
CUCAAGUCCUGUGCUACACAUCGUAUGUACCGAAUCGGUUUUUUUGGAGGAGGAAAGUAUUAUGUUACGCCGUUCGGAUCUGCACUUCCA	-0.16
CUGUGCUACACAUCGUAUGUACCGAAUCGGGUUUUUUUGGGGUUUUUUUGGUUUUUUUGGGAAAGUAUUAUGUUACGCCGUUCGGAUCUG	0.65
CCUCAAGUCCUGUGCUACACAUCGUAUGUACCGAAUCGGAAGGAAGGAAGGGGAAAGUAUUAUGUUACGCCGUUCGGAUCUGCACUUCCA	-0.929
CCUCAAGUCCUGUGCUACACAUCGUAUGUACCGAAUCGGGGUGGGUGGGUGGGAAAGUAUUAUGUUACGCCGUUCGGAUCUGCACUUCCA	1.12
UUCAGGAUGAAGAUGCAUCAGGGGGCGAUCAAGAUCAGGAAGAAAGAAGAUGGAACAAAAGGACUCAGCAGAUGCUUCAUGGUCUUCAGG	-2.57

Repeated from above (study 1):
Strand	bound/input enrichment
GAGCAACGGAGAGCCCCACUUUCUACCAGAUGCAAUGUUUGGGCAACCAGGAGCCCCCGGCCGCACUCCAUUUCUUGGUCAGCAUGGUUUUAAUUUUUUUCCCAGUGGGAUUGACUUCUC	0.252 ratio
GCAUCUCCCUGCUCCCCUCAACCCCCUCCCACCCCAUCCACGCCCCCUACCUUUCCCAAUUUCCGUUUCAUGCAAUAAAAAGGCCAAACUUUUUAUUCCAUAAAACAAGAAGGACAAAAC	1.32 ratio
AUUUUAGCUCUGAUCUCACUCUUCAGUAUUCCUGUUAUAUAUGAACGGCAUCAGGCGCAGACCGAUCAUUAUCUAGGACUUGCAAACAAGAGCGUUAAGGAUGCCAUGGCCAAAAUCCAA	0.318 ratio
ACCUGGGGCAUUCAGCCAGCGCCCAUGCCUGUGCCUGUGUGGGUGAUCAUUUUAGCAGUUCCCGCAGGAUUGUUGCUACUGGCUGUUUUGGUAUUUGUAAUGUACAGGAUGGGCUUUUUU	0.406 ratio
